# Measurements of several laboratories.
# Parts stem from different laboratories: compare values within a part only. Substitutions count along the parent as printed.

# Block 1
# Target: ABI1, truncated, D143A, DHFR fusion (Arabidopsis thaliana)
# Technique: DHFR PCA, deep sequencing
# Matrix: yeast
# Setting: methotrexate growth selection, single substitutions
# With: (+)-ABA 710 µM
# Baseline: wild-type fitted maximum
# Direction: higher = stronger binding
# Starting sequence: PYL1, truncated, DHFR fusion (Arabidopsis thaliana); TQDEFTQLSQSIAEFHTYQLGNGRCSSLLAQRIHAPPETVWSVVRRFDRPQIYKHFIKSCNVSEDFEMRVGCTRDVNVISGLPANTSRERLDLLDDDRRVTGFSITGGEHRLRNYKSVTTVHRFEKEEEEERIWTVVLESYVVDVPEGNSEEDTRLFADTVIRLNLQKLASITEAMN; partner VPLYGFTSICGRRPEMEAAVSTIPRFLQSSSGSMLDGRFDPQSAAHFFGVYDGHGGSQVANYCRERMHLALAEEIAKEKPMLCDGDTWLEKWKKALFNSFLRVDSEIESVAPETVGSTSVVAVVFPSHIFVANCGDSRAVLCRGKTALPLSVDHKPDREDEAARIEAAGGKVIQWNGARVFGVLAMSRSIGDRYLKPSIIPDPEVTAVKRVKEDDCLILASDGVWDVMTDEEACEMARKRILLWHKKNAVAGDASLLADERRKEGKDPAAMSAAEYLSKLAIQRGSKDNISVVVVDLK
Variant,relative binding score
H55L,103%
D159C,69.7%
G148Y,83%
R111Y,70%
T6W,106%
T1L,99%
A170H,64.2%
G71K,71.1%
C72V,102%
V136N,50.7%
T73R,95.1%
D75Y,100%
T106M,104%
S26H,103%
F124R,91.5%
G23E,94.4%
P50K,-13.8%
L166I,64.2%
N85V,108%
Q51P,33.4%

# Block 2
# Target: ATF1, bZIP domain (human)
# Technique: DHFR protein complementation
# Matrix: yeast
# Setting: single substitutions, most at no-binding floor
# Baseline: wild-type JUN-FOS pair
# Direction: higher = stronger binding
# Starting sequence: JUN, bZIP domain (human); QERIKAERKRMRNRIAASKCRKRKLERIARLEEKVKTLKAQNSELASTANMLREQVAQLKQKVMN; partner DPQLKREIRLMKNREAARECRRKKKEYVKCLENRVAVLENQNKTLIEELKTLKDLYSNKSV
Variant,binding fitness
L31Q,-1.48 natural log
T48P,-1.53 natural log
L45W,-1.55 natural log
E54G,-1.5 natural log
N42W,-1.53 natural log
V35Y,-1.55 natural log
T48C,-1.41 natural log
Q41K,-1.39 natural log
M51G,-1.51 natural log
A49G,-1.54 natural log
A49Y,-1.55 natural log
A57V,-1.34 natural log
L31S,-1.55 natural log
E54K,-1.49 natural log
E33C,-1.47 natural log
L45Q,-1.55 natural log
K39P,-1.57 natural log

# Block 3
# Target: RING finger protein unkempt homolog, zinc fingers 1-6, GST-SBP tag (UNK, Homo sapiens, UniProt Q9C0B0, residues 30-357)
# Technique: RNA Bind-n-Seq
# Form: RNA
# Matrix: in vitro
# Tested at: not given
# Setting: RNA with constant flanks, human-mouse chimeric sites, ends assumed
# Baseline: input RNA pool
# Direction: higher = stronger binding
# Construct (chain): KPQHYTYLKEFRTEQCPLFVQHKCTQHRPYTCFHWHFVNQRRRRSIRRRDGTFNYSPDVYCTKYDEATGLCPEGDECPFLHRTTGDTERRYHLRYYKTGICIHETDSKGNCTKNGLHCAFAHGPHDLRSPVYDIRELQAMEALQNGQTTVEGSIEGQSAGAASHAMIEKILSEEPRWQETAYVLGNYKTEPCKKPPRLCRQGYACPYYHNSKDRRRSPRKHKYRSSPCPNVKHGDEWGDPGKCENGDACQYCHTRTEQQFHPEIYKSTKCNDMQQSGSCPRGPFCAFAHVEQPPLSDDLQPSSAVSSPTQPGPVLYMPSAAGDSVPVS
Strand,bound/input enrichment
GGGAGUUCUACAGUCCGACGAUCGGACAUCUGUCAAAUUGUAUUUCCCGUGUGAAACAAGUGAACACUCUGAUACACUUCAUCUGCUUGUACAUCUGUAUGAUAGAGAAAUGUAAAUAUGUUAAUCCAAGAUGAAUUCAACUUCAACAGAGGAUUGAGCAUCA,0.28 ratio
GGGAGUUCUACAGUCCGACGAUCAGAAUCUUGGGACUGUUUUACUUAAUUGGUCAUUGAUAGCUUAACAAGCAUGGAGAUGAGAUUAGAAAUCUUGACAUCAACAGGUAUUAAGCAGAAAAAACCAUGGCCACGUGUCUCCUGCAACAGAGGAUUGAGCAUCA,0.106 ratio
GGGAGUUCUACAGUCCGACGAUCUUAAACACCAAGCUGAUGGACUCUGAUGGCCUCCAUCUCUCAGGCACGUGUGCCUUCUCUUAGUCCCUGUUUUCGGGAUGUUAUGAAUCUCAGUACUGUGGUUUGAAAGCAGUUAUGUUGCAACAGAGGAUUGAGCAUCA,0.234 ratio
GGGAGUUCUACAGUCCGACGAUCAUCAAAUAUUUUGGGGACAUCAUUAGUGUGGGACAGAGACUGUUGCAAGGAGCUCGGAUCUUAGGGAUUCCAGUUAUCAUAACGGAACAAUACCCUAAAGGACUUGGCAGCACCGUUCAACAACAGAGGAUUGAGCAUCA,0.178 ratio
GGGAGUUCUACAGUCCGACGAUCAUGGAGAAGGAUUCUCUGCCCCGCUUUGUGCGCUCUGAAUUUUAUAAGGAGUUAAUCAAGUAGUCAUCUGGUCAGGCUUCCAAAAGUUCCUGUGAGUGUUGAGUUACAUCCUUUGUAGCACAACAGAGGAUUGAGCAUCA,0.229 ratio
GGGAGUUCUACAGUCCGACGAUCCUGUGACUGAUGGCAGCUGAAGUUUGAGCAGCUGAAGUUGACUCCCUCUCCUUGCCUGAACCCCCCCCCACUGCCCCCCCAUCCCCCAGUGUCGGCUGAGAUGUUGCCUCUGCACGGUUCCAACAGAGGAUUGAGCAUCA,0.661 ratio
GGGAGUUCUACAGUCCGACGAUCAAAGCCCAAGUAUUUUGAAAAAACUCGAACAGAUUUGACAAGGGUAGCCAGCUUGGAGUCUAGCAACUUUGCCAAUGGUUUACCAAUCUGGGGGCUUUGUUUUUCUUUCUUCUUUCAAAUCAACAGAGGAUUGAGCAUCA,0.211 ratio
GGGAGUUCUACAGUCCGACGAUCCUGGGCUUCUCUUUUCUGAUCGUCAGGUAGGAAAAGCCUAAAGAUUAGGUUGUAAGAAAAACAGAAGCCAUGUUUCGAAGACCUGUGUUACAGGUAUUUCGUCAGUUUGUAAGACAUGAGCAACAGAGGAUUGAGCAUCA,0.437 ratio
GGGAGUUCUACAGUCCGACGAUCGAGCGUCUUGCCCGCACUGGGAUCAUCGUGACCACGAGUGAGGCUGUCCUCCUACAGCUGGUGGCUGACAAAGACCACCCGAAGUUCAAGGAAAUUCAGAAUCUAAUUAAGGCGAGUGCCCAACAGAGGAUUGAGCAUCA,0.0969 ratio
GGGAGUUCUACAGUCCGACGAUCUGUAGUUGAUCCCCUGCGUGGCUGGGCCUUUUCUUUCUUUCCUUUAGGAAAAGCCUAAAGAUUAGGUUGUAAGAAAAACAGAAGCCAUGUUUCGAAGACCUGUGUUACAGGUAUUUCGUCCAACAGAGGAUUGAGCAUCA,0.138 ratio
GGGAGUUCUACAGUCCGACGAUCAUGGAACAUUUCGAUGCGUCACUCAGUACCUAUUUCAAGGCCUUCCUAGGCCCUCGAGAUACAAGAGUCAAAGGAUGGUUCCUCCUGGACAAUUAUAUCCCUACGUUUGUCUGUUCUGUUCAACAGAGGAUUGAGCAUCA,0.0878 ratio

# Block 4
# Target: Histone acetyltransferase KAT6A, both winged helices, GST fusion (KAT6A, Homo sapiens, UniProt Q92794, residues 1-181)
# Technique: protein binding microarray
# Form: double-stranded DNA, one strand shown
# Matrix: in vitro
# Tested at: not given
# Setting: 8-mer, flanks averaged, mean of 2 arrays, mostly near background
# Baseline: not given
# Direction: higher = stronger binding
# Target sequence (chain): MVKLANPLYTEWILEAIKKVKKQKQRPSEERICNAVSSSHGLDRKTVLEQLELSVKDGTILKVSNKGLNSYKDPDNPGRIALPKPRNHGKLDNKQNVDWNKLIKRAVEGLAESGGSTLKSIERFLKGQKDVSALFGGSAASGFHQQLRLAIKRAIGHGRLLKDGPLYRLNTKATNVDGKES
Strand,E-score
AGCTGATA,-0.117
CCCGCTTA,0.147
CAGATTAA,-0.104
ATGTGAAA,-0.0624
CCTGGTAA,-0.141
GTGAAAAC,0.0769
AGAATACC,-0.00492
ATCACCGC,0.218
GCGCGGAA,0.332
CAACAAAG,-0.268
AAGTCAGG,-0.126
GACTGCGC,0.264
AGCGGTAA,0.208
CGGCGCGA,0.326
CGTCATAG,0.148
CGACGTTC,0.0847
AGGGAGGC,-0.2
CTACGAAG,-0.106
CATGTACA,-0.0688

# Block 5
# Target: Sal-like protein 4, full length isoform B (SALL4, Homo sapiens, UniProt Q9UJQ4-2, residues 1-616)
# Technique: universal PBM
# Form: double-stranded DNA, one strand shown
# Matrix: in vitro
# Tested at: not given
# Setting: 8-mer, flanks averaged, mean of replicates
# Direction: higher = stronger binding
Strand,E-score
AGGAGACA,0.0226
CCTCCTTC,-0.195
AAATTCAG,0.133
CACGGCAG,-0.21
CTAGAGAG,-0.129
AACCTCGG,-0.192
GGAGAAAA,0.0654
GTCAGACA,-0.0109
CAAGACGA,-0.0365
AACCCACC,-0.225
GGACGCTA,-0.153
GACTTAAC,-0.0473
AGCACAGA,0.0741
AAGTGAGT,-0.0445
ATTGGTAC,-0.00852
GGGAGAGA,-0.165
GTGAACCA,0.044
GGTCTTGA,-0.224

# Block 6
# Target: CCNB2, cyclin fold, Cln2 fusion (human)
# Technique: yeast growth competition, sequencing
# Matrix: yeast
# Setting: strong parent motif
# Baseline: not given
# Direction: higher = stronger binding
# Starting sequence: PKMYT1 docking peptide (human); SFEPRNLLSLFED; partner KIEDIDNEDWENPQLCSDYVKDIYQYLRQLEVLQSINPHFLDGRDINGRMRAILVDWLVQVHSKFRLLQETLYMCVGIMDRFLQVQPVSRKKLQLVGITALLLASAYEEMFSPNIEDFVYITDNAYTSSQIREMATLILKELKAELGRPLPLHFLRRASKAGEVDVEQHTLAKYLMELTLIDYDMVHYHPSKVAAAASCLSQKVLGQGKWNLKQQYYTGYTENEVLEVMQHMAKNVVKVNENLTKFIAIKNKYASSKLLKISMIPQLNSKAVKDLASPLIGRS
Variant,normalised enrichment score
D13A,1.2
P4W,0.21
S9I,0.873
L10Y,0.726
S9L,0.778
F11Q,-0.399
P4Y,-1.06
L10D,2.26
L8Q,0.404
E12S,-0.351
D13G,0.81
L8W,0.06
S1V,1.97
E3N,0.345
S1N,1.88
S9Y,1.24
N6L,-0.458
F2N,-0.186
D13W,-0.102
R5M,1.59
S1I,0.886
L10Q,1.13
D13Y,0.89
L10H,0.596
F2Q,-0.152
